Measured values of several laboratories.
Protocols differ between the studies behind these lines. Numbers after ± are the reported error.

SMILES | tested on | assay | system | conditions | scale | endpoint | result
COC1CN([C@H]2CC[C@H]([C@@]3(C)Oc4c(Cl)cc(C(=O)NCc5c(SC)cc(C)[nH]c5=O)c(C)c4O3)CC2)C1 |  | RNA-seq, measured: GPCPD1 mouse homolog | mouse, HT-1376 xenograft, whole blood | dose not given | relative to: vehicle | log2 fold change | 0.436
O=C(N/N=C/c1ccc(C[n+]2ccccc2)cc1)c1cncc(C(=O)N/N=C/c2ccc(C[n+]3ccccc3)cc2)n1 | hp2 hairpin duplex DNA | FRET melting |  | 1 µM, with: ds26 10 µM |  | ΔTm | 1 ± 0.2 °C
CN1CCCNC(=O)c2cccc(c2)C(=O)NCCCN(C)CCCNc2cccc3c2C(=O)c2cccc(c2C3=O)NCCC1 | SAS | RNA-Seq, measured: ADNP2 mRNA |  | 1 µM, 6 h | relative to: untreated cells | log2 fold change | 0.702
Cc1ncsc1-c1ccc(C(C)NC(=O)C2CC(O)CN2C(=O)C(NC(=O)CCCCCCCCCCN2CCCC(Nc3ncc(Cl)c(Nc4ccccc4S(=O)(=O)C(C)C)n3)C2)C(C)(C)C)cc1 (stereo not shown) | 22Rv1 | RNA-seq, measured: SGO1-AS1 |  | concentration not given | relative to: DMSO | log2 fold change | -1.01
CC[n+]1cccc2cc(/C=N/NC(=O)N/N=C/c3ccc4c(ccc[n+]4CC)c3)ccc21 | MYC parallel G4 DNA | FRET melting |  | 1 µM, DNA 0.2 µM, with: duplex DNA competitor 10 µM |  | ΔTm | 4.9 ± 0.1 °C
CNS(=O)(=O)Nc1nccc(Cc2c(C)c3ccc(Oc4ncccc4F)cc3oc2=O)c1F | DS-1 | cell viability, CellTiter-Glo |  | 7 days |  | IC50 | 0.107 µM
O=C(N/N=C/c1ccc2c(ccc[n+]2Cc2ccccc2)c1)c1cccc(C(=O)N/N=C/c2ccc3c(ccc[n+]3Cc3ccccc3)c2)c1 | hp2 hairpin duplex DNA | FRET melting |  | 1 µM |  | ΔTm | 1.6 ± 0.1 °C
Nc1ncc(-c2cc(-c3cnn(CC(F)(F)F)c3)ncc2F)nc1C(=O)NC1CNCC(F)C1 (stereo not shown) | RIPK4 | KINOMEscan |  | 1 µM | relative to: control | remaining binding | 3.2%
C=CC(=O)Nc1cccc(Cn2ncc3cnc(Nc4cnn(CCOC)c4)nc32)c1 | ROS1 human | binding, KINOMEscan |  | 100 nM | lower = stronger binding | percent of control | 61%
C=CC(=O)N1[C@@H](c2ccc3c(c2)OCO3)c2[nH]c3ccccc3c2C[C@H]1C(=O)N1CCN(C)CC1 | human cyclin E1 wild type-3xFLAG:CDK2 | co-IP with TMT proteomics, measured: PCBP1 |  | concentration not given, Q15365 | relative to: wild type DMSO | relative co-enrichment | 96%

Excerpt of the above:
SMILES | tested on | assay | system | conditions | scale | endpoint | result
O=C(N/N=C/c1ccc(C[n+]2ccccc2)cc1)c1cncc(C(=O)N/N=C/c2ccc(C[n+]3ccccc3)cc2)n1 | hp2 hairpin duplex DNA | FRET melting |  | 1 µM, with: ds26 10 µM |  | ΔTm | 1 ± 0.2 °C
